Published values pooled from the literature.
Lines come from different studies, so protocols differ. Numbers after ± are the reported error.

CCCc1ccc2c(c1)sc(=O)n2CCN(C)C12CC3CC(CC(C3)C1)C2 — half-life (metabolic stability; rat, liver microsomes; 1 µM, pH 7.4): 1.89 min
Cc1ccc(NC(=O)c2ccc(CN3CCN(C)CC3)cc2)cc1Nc1nccc(-c2cncc(-c3oncc3C)c2)n1 — half-life (Parkinson's disease patients, plasma; oral, 50.0 mg once daily, day 1, 7-day dosing, mean): 600 min
O=C(O)CCN1C(=O)/C(=C2/C(=O)Nc3ccc(Cl)cc32)SC1=S — half-life (mouse, plasma; intraperitoneal, 25 mg/kg, single dose): 571 min
CNCc1ccc(-c2[nH]c3cc(F)cc4c3c2CCNC4=O)cc1 — half-life (human, plasma; oral, 300 mg, fasted, median): 1450 min
O=c1sc2ccccc2n1CCNC12CC3CC(CC(C3)C1)C2 — half-life (metabolic stability; rat, liver microsomes; 1 µM, pH 7.4): 1.5 min
CONC(=O)c1cccc2c1cc(C)n2-c1nc2c(c(NCc3ccccc3)n1)CCCN2 — half-life (metabolic stability; rat, liver microsomes; 1 µM, pH 7.4): < 10 min
COc1cc(OC)c(/C=C/S(=O)(=O)Cc2ccc(OC)c(NCC(=O)O)c2)c(OC)c1 — half-life (cancer patients, phase I, plasma; oral, 70 mg twice daily, day 1 cycle 1): 200 ± 144 min
Oc1ccc(-c2nc(-c3ccc(Oc4ccc(C(F)(F)F)cc4)cc3)no2)cc1 — half-life (CD-1 mouse, plasma; intravenous, 50 mg/kg, single dose): 1320 min
COc1cccc(CN)c1O — half-life (male C57BL/6 mouse, kidney; intraperitoneal, 200 mg/kg, single dose): 36 min
C1CCc2c(c(N3CCOCC3)nc3sc4c(N5CCNCC5)nnnc4c23)C1 — half-life (male Swiss mouse, plasma; intravenous, 3 mg/kg): 39.6 min
CN(CCn1c(=O)sc2ccccc21)C12CC3CC(CC(C3)C1)C2 — half-life (metabolic stability; rat, liver microsomes; 1 µM, pH 7.4): 1.06 min
